# Measured values gathered from unrelated publications.
# A part holds a random share of what one study measured.
# Chain of UniProt Q14680 (whole entry, looked up): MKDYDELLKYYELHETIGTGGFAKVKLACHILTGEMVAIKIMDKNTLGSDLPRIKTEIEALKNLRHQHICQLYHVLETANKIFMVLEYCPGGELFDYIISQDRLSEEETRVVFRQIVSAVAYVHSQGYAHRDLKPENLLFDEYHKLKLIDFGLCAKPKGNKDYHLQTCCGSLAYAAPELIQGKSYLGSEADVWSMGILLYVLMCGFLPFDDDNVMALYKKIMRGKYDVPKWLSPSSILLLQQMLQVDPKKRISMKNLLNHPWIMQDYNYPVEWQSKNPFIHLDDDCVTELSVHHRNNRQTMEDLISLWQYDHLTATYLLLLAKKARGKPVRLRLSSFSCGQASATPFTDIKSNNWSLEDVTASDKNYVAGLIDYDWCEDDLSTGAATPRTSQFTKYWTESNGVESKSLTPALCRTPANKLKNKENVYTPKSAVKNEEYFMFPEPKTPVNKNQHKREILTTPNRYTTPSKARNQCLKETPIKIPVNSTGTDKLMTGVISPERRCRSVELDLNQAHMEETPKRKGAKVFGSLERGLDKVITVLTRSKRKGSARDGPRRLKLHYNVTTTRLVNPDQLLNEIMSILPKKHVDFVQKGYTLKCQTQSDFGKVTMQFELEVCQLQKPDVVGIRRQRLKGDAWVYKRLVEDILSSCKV
# Chain of UniProt Q15831 (whole entry, looked up): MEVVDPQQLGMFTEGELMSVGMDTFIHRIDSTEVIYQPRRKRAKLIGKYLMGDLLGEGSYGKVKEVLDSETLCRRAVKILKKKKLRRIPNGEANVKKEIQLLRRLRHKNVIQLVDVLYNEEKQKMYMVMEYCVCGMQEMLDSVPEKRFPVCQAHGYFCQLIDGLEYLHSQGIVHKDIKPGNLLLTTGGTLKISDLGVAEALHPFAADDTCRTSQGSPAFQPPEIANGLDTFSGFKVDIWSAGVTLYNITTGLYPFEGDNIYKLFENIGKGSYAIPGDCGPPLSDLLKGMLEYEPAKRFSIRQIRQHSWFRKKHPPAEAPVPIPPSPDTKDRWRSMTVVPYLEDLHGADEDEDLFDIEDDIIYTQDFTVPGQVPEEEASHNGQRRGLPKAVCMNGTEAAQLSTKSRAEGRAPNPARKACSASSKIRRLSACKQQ
# Chain of UniProt Q05655 (whole entry, looked up): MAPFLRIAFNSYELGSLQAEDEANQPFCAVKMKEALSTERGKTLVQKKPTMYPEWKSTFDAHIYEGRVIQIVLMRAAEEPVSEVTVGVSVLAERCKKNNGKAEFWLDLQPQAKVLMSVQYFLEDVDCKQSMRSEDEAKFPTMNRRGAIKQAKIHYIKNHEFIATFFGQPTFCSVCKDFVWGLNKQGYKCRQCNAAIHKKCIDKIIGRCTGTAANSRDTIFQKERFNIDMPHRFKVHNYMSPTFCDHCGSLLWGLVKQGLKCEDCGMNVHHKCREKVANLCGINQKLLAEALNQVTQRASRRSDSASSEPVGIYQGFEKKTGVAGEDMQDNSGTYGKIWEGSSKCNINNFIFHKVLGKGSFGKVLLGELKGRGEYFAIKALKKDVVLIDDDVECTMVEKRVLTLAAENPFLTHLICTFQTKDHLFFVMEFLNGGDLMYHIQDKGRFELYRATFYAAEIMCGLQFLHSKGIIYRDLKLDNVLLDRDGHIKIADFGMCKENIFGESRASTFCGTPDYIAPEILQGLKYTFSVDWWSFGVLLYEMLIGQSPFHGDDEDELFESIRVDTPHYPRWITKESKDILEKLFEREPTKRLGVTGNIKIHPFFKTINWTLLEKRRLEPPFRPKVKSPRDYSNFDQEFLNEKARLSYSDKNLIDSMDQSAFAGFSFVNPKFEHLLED
# Chain of UniProt Q8IVH8 (whole entry, looked up): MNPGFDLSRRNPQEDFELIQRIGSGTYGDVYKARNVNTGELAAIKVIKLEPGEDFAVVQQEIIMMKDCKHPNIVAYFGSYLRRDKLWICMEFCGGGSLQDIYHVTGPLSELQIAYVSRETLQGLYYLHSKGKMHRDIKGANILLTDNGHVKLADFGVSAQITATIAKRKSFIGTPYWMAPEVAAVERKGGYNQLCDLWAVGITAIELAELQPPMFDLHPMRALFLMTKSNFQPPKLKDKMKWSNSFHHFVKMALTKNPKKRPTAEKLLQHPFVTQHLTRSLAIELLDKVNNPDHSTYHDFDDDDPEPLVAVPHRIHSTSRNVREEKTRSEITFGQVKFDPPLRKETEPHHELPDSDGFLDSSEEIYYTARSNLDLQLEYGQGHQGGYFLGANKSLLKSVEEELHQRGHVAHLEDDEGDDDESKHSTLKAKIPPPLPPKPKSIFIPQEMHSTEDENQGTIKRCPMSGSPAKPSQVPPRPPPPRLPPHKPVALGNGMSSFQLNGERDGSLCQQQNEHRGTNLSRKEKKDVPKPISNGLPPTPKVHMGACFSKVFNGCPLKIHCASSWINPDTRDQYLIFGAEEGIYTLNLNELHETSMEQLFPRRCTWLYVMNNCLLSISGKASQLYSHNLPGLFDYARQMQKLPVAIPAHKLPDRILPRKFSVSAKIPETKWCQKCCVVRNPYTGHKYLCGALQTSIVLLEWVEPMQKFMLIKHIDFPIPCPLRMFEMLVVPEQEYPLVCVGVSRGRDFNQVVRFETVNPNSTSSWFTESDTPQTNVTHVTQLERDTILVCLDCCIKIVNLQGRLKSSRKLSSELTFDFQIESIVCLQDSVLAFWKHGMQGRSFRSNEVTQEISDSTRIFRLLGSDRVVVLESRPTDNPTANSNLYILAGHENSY

# Sample 1
# SMILES: CCCOc1ccc([C@H]2[C@H](C(=O)O)[C@@H](c3ccc4c(c3)OCO4)CN2CC(=O)Nc2c(CC)cccc2CC)cc1
# Read-out: cell-free assay
# Method: competition with immobilised ligand
# Concentration: 1 µM
target,remaining binding [%]
"MELK (Homo sapiens, UniProt Q14680)",65
"PRKCD (Homo sapiens, UniProt Q05655)",100
"MAP4K3 (Homo sapiens, UniProt Q8IVH8)",85
"STK11 (Homo sapiens, UniProt Q15831)",88

# Sample 2
# Target: PABPC1L2, full length, GST fusion (mouse, UniProt A0ABA7IW68)
# Method: RNAcompete
# Molecule type: RNA
# Sample: in vitro
# Concentration: 20 nM
# Notes: 7-mer, probes averaged, single round
# Relative to: mean of 7-mers
# Direction: higher = stronger binding
Strand,7-mer Z-score
GGAUUGG,-0.0554
UUCUUAC,-0.269
GGUCGUU,-0.456
CGAUACU,-0.0808
UUCAGUC,-0.344
GAUUAUG,-0.0391
UCGCCGA,-0.402
GAUCAUU,-0.22

# Single results of other studies
Molecule,tested on,assay,test system,conditions,measurement,result
"IPO5 (Homo sapiens, UniProt O00410)","NOP14 (Homo sapiens, UniProt P78316)",cross-linking MS,cell fractions,with: DMTMM,cross-linked residues,E725 to K26
CCC[C@H]1NC(=O)CSC[C@@H](C(=O)OCC)N(C)C(=O)[C@H](CC(C)C)NC(=O)[C@@H](C)N(C)C(=O)[C@@H](CC(C)C)NC(=O)[C@H](C)N(C)C(=O)[C@@H]2CCCN2C(=O)[C@H](CC(C)C)NC(=O)CN(CCC)C1=O,,,hydrocarbon/water,,logD,0.711
"SMC4 (Homo sapiens, UniProt Q9NTJ3)","AGTPBP1 (Homo sapiens, UniProt Q9UPW5)",cross-linking MS,cell fractions,with: DSSO,cross-linked residues,K363 to K1023
"FAM98A (Homo sapiens, UniProt Q8NCA5)","RTCB (Homo sapiens, UniProt Q9Y3I0)",cross-linking MS,cell fractions,with: DSSO,cross-linked residues,K277 to K245

# For quick reference, copied from above (sample 2):
Strand,7-mer Z-score
GGUCGUU,-0.456
